Experimental data gathered from unrelated publications.
A part holds a random share of what one study measured. Substitutions count along the parent as printed.

Study 1 — technique: protein-binding microarray; molecule type: double-stranded DNA, one strand shown; sample: in vitro; tested at: 940 nM top; notes: 60-bp whole probe; added: salmon DNA 0.4 mg/ml; baseline: random background probes; direction: higher = stronger binding; quantity: fitted relative affinity; constant ends, left off below: GCCTAGCAC … GTCTTGATTCGCTTGACGCTGCTG
Target: Interferon regulatory factor 5, full length, phosphomimetic (IRF5, Homo sapiens, UniProt Q13568-2, residues 1-514, S451D/S453D/S456D/S462D)
TCATTCCTGATCTCTGGTCTTGTGCTA: 0.286 z-score
GACGATACCAGTATCGAGACGTGCTAG: 3.2 z-score
GACGATATCAATCTCGAGACGTGCTAG: 0.547 z-score
TACTTTCTTTTTTTCTTTTAGTGCTAG: 3.68 z-score
TTAGAACTGGGGACCGGATTAGTGCTA: -0.022 z-score
CTAGATATCAGACTGGATTAGTGCTAG: -0.455 z-score
GACGGTTTCGGTATCGCGACGTGCTAG: 14.2 z-score
TTAGATCTCAGTTTCGCTTAGTGCTAG: 4.99 z-score
CTTTTTTTCCGAGTGAGTAAGTGCTAG: 0.45 z-score
GACGGTCTCGGTTTCTGGACGTGCTAG: 4.84 z-score
TTAGGTTTCCTTTTCCTTTGGTGCTAG: 1.71 z-score
TTAGGAATCGGACTGGGTTAGTGCTAG: -0.104 z-score
TAAGATATCAGTCTCGATTAGTGCTAG: 3.23 z-score
TAAGGACTGGGACTGGGTTAGTGCTAG: -0.316 z-score
TTGGGTCTCGGTATCGGTTAGTGCTAG: 6.89 z-score
GACGATATCAGTCTCGAGACGTGCTAG: 1.24 z-score
TTAGGTCTCCTACTGCTGTAGTGCTAG: -0.192 z-score
TTTTTCTCCTATTTAAGACAGTGCTAG: 1.45 z-score
TTAGATTTCTGGACTGGATTAGTGCTA: -0.0439 z-score
TTCGGTTTCGGACTGGGTTAGTGCTAG: 5.85 z-score
TTAGGTTTCGGACTGGGTTAGTGCTAG: 7.79 z-score
CCCCAACTCGCCTTTTTTGTTGTGCTA: 0.883 z-score
TCAGTCTTCCCCATCTTACTGTGCTAG: 1.23 z-score
TCTACAATGGCTTTGCCTTTGTGCTAG: -0.376 z-score
TTAGAACTGGACTTTCGGTTAGTGCTA: 2.55 z-score

Study 2 — target: CCNB3, cyclin fold, Cln2 fusion (human); technique: yeast growth competition, sequencing; sample: yeast; notes: weak parent motif; baseline: not given; direction: higher = stronger binding; quantity: normalised enrichment score
Starting sequence: FOXM1 docking peptide (human); PHLARPIKVESPP; partner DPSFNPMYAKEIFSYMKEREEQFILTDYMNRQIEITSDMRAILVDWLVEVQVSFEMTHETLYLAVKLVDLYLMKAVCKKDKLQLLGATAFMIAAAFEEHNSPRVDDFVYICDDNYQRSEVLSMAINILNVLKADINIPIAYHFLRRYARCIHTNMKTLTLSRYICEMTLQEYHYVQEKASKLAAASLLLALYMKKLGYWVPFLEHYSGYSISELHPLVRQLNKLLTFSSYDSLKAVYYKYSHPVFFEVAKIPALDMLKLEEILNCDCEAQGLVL
PHAARPIKVESPP [L3A]: -0.133
PHLARPIKVESAP [P12A]: -0.73
AHLARPIKVESPP [P1A]: -0.247
PHLARPIAVESPP [K8A]: 0.0349
PALARPIKVESPP [H2A]: -0.00804
PHLARPAKVESPP [I7A]: -0.241

Study 3 — target: CREB3, bZIP domain (human); technique: DHFR protein complementation; sample: yeast; baseline: wild-type JUN-FOS pair; direction: higher = stronger binding; quantity: binding fitness
Notes: single substitutions, most at no-binding floor
Starting sequence: JUN, bZIP domain (human); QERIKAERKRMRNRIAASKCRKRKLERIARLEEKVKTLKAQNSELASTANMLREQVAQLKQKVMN; partner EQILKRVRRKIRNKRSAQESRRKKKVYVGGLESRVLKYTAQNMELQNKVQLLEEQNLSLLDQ
K39I: -1.57 natural log
S43H: -1.47 natural log
E44V: -1.46 natural log
K39C: -1.51 natural log
K34G: -1.4 natural log
K34V: -1.5 natural log
V56K: -1.48 natural log
A49W: -1.53 natural log
A46N: -1.44 natural log
K36C: -1.29 natural log
A29V: -1.46 natural log
T37N: -1.24 natural log
Q58P: -1.42 natural log
A49D: -1.49 natural log
S47I: -1.48 natural log
M51S: -1.31 natural log
V56D: -1.54 natural log
R53Q: -1.45 natural log
K36R: -1.41 natural log
S43M: -1.4 natural log
T37P: -1.53 natural log
Q41G: -1.52 natural log
S43F: -1.27 natural log

Study 4 — Sequence: B1 (TRIM32 RING domain); technique: yeast two-hybrid; sample: yeast; notes: mostly zero background; baseline: not given; direction: higher = stronger interaction; quantity: lacZ reporter activity
B1: TRIM32 RING domain (UniProt Q13049); chain NLDALREVLECPICMESFTEEQLRPKLLHCGHTICRQCLEKLLASSINGVRCPFCSKITRITSLTQ
UBE2Z UBC core domain (UniProt Q9H832): 0
UBE2I UBC core domain (UniProt P63279): 0
UBE2R2 UBC core domain (UniProt Q712K3): 0
UBE2M UBC core domain (UniProt P61081): 0
UBE2O UBC core domain (UniProt Q9C0C9): 0
UBE2E3 UBC core domain (UniProt Q969T4): 0
UBE2D1 UBC core domain (UniProt P51668): 0
BIRC6 UBC core domain (UniProt Q9NR09): 0
UBE2L3 UBC core domain (UniProt P68036): 0
UBE2J2 UBC core domain (UniProt Q8N2K1): 0
UBE2J1 UBC core domain (UniProt Q9Y385): 0
UBE2C UBC core domain (UniProt O00762): 0
UBE2S UBC core domain (UniProt Q16763): 0
UBE2T UBC core domain (UniProt Q9NPD8): 0
UBE2Q1 UBC core domain (UniProt Q7Z7E8): 0

Study 5 — technique: protein binding microarray; molecule type: double-stranded DNA, one strand shown; sample: in vitro; tested at: not given; baseline: not given; direction: higher = stronger binding; quantity: E-score
Target: Histone acetyltransferase KAT6A, winged helix 2, GST fusion (KAT6A, Homo sapiens, UniProt Q92794, residues 85-181)
Notes: 8-mer, flanks averaged, mean of 2 arrays, mostly near background
Construct (chain): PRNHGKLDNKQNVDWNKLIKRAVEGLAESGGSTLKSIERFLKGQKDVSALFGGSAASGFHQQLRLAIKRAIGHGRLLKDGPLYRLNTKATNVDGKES
ATGGGGAG: -0.0194
CGCCACTC: 0.0563
CGCTGGGC: 0.112
GATGCCAA: -0.0715
CTTGCGCA: -0.0341
AGCGCAAC: 0.0395
AAACATTG: -0.183
GCTAAGGA: -0.0226
AGTCGACC: 0.0879
CTAGCCTA: -0.0895
AAGACATA: -0.143
AAAGCAAA: 0.132
GTGAACGA: 0.079
GTTAGAGA: -0.0842
CTATTACC: -0.0886
ACCTGGTA: -0.228
ACTATGGG: -0.144
AACATCCT: -0.1
ATCTTCTC: -0.0484
CTGTGCGC: 0.0698
ACCTGGCT: -0.0911
CGAAGTGA: 0.125
GCGGTCAC: 0.0468
TAGAGCTA: -0.139

Study 6 — technique: DHFR PCA, deep sequencing; sample: yeast; added: (+)-ABA 1.4 µM; baseline: wild-type fitted maximum; direction: higher = stronger binding; quantity: relative binding score
Target: ABI1, truncated, D143A, DHFR fusion (Arabidopsis thaliana)
Notes: methotrexate growth selection, single substitutions
Starting sequence: PYL1, truncated, DHFR fusion (Arabidopsis thaliana); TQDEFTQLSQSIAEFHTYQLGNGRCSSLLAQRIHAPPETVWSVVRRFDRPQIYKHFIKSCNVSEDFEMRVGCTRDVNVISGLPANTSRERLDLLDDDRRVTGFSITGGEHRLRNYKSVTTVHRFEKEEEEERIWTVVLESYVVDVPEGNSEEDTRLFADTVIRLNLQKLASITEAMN
R45K: 10.2%
I57P: 0.677%
G21Q: 56.2%
V161M: 62.8%
C60T: 27.4%
Y18E: -3.24%
V78M: 51.9%
A170N: -13%
E130T: 62.2%
R74N: -4.38%
Q10Y: 15%
P36N: 43.2%
Q51E: 47%
S80T: 45%
K58L: 6.31%
A84V: 18.7%
V76I: 75.6%
V78Y: 80.1%
G107W: -0.34%
H16T: 10.8%
V100Y: -2.35%
T17Q: 9.27%
V118G: -3.68%
G107Y: -18.3%
Q19I: 37.9%

Excerpt of the above (study 1):
TCATTCCTGATCTCTGGTCTTGTGCTA: 0.286 z-score
TCAGTCTTCCCCATCTTACTGTGCTAG: 1.23 z-score
TTAGATTTCTGGACTGGATTAGTGCTA: -0.0439 z-score
TCTACAATGGCTTTGCCTTTGTGCTAG: -0.376 z-score
CTTTTTTTCCGAGTGAGTAAGTGCTAG: 0.45 z-score
TAAGGACTGGGACTGGGTTAGTGCTAG: -0.316 z-score
TTAGATCTCAGTTTCGCTTAGTGCTAG: 4.99 z-score
TACTTTCTTTTTTTCTTTTAGTGCTAG: 3.68 z-score
TTAGGAATCGGACTGGGTTAGTGCTAG: -0.104 z-score
TTAGAACTGGACTTTCGGTTAGTGCTA: 2.55 z-score
GACGATATCAATCTCGAGACGTGCTAG: 0.547 z-score
